Assay results of several laboratories.
Protocols differ between the studies behind these lines. Several values in a cell are separate wells, animals, samples, runs or records. Numbers after ± are the reported error.

CCCCn1cc(C(=O)O)c(=O)c2cc(F)c3c(nnn3-c3cccc(OC)c3)c21
IC50 (T47D; cell growth, SRB; 72 h): 61.2 ± 6.21 µg/mL

[N-]=[N+]=NC1COC(=O)N1/N=C/c1ccc([N+](=O)[O-])o1 (stereo not drawn)
IC50 (HepaRG; cell growth or viability, MTT; 24 h): > 100000 nM

O=C(Cc1ccccc1)NC(=S)n1c(-c2ccccc2)nc2ccccc21
IC50 (normal human PBMC; cytotoxicity, MTT; 48 h): 187000 ± 19400 nM

COc1cc2ncnc(Nc3ccc(F)c(Cl)c3)c2cc1NC(=O)/C=C/CN(C)C
IC50 (MDA-MB-435S, NIH3T3, SW-620; cytotoxicity, sulforhodamine B; 72 h): 700 to 2200 nM

CCCCn1cc(C(=O)O)c(=O)c2cc(F)c(N)c([N+](=O)[O-])c21
IC50 (T47D; cell growth or viability, SRB): 600 nM and 590 nM

O=C1OCC(O)N1/N=C/c1ccc([N+](=O)[O-])o1 (stereo not drawn)
IC50 (HepaRG; cell growth or viability, MTT; 24 h): > 100000 nM

CCCCn1cc(C(=O)O)c(=O)c2cc(F)c(Nc3cccc(OC)c3)c([N+](=O)[O-])c21
IC50 (K562; cell growth, SRB; 72 h): 5.9 ± 0.57 µg/mL

O=C1OCC(NCc2ccccc2)N1/N=C/c1ccc([N+](=O)[O-])o1 (stereo not drawn)
IC50 (HepaRG; cell growth or viability, MTT; 24 h): > 100000 nM

CCCCn1cc(C(=O)O)c(=O)c2cc(F)c(Nc3cc(OC)c(OC)c(OC)c3)c([N+](=O)[O-])c21
IC50 (PANC-1; cell growth, sulforhodamine B; 72 h): 48.6 ± 2.87 µg/mL

CCCCn1cc(C(=O)O)c(=O)c2cc(F)c3[nH]nnc3c21
IC50 (PANC-1; cell growth, SRB; 72 h): 60.6 ± 7.45 µg/mL

CCCCn1cc(C(=O)O)c(=O)c2cc(F)c3c(nnn3-c3ccc(OC)cc3)c21
IC50 (T47D; cell growth, SRB; 72 h): 55 ± 1.66 µg/mL

Clc1ccc2ccc3[n+](c2c1)[Ir-3]12([c]4ccccc4-3)([c]3ccccc3-c3ccc4ccc(Cl)cc4[n+]31)[n+]1ccccc1-c1cccc[n+]12.F[P-](F)(F)(F)(F)F
IC50 (MDA-MB-231 control; cytotoxicity, MTT): 300 nM
